Experimental data gathered from unrelated publications.
Parts stem from different laboratories: compare values within a part only. Values joined by “and” are separate records of one study, mostly repeats; a detail may differ.
UniProt P10721, sequence (whole entry, unmodified, looked up): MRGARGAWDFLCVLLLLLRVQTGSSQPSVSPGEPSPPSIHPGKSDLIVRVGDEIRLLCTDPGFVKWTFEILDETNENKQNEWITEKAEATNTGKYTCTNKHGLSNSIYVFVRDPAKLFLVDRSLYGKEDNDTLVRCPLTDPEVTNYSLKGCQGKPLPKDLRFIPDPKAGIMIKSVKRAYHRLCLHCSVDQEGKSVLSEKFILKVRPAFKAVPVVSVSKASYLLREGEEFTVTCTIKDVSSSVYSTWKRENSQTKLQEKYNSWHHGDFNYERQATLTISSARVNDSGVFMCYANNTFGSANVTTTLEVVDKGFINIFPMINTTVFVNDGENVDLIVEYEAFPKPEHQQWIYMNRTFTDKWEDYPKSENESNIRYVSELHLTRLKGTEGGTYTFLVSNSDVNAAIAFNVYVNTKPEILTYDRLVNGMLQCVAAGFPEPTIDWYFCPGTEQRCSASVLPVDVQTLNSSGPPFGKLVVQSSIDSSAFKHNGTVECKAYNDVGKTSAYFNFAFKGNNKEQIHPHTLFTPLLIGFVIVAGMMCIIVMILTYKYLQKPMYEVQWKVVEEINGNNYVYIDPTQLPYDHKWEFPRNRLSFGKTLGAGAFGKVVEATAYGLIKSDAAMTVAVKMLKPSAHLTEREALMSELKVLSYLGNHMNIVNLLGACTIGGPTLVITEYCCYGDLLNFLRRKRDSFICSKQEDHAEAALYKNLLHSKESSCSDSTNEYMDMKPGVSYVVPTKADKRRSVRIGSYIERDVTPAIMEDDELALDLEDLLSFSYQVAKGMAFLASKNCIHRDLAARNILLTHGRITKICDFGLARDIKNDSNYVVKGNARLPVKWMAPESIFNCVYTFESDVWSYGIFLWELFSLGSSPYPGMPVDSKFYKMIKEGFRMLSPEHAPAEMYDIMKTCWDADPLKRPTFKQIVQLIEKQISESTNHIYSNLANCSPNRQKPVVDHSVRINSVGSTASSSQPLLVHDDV
UniProt P09769, sequence (whole entry, looked up): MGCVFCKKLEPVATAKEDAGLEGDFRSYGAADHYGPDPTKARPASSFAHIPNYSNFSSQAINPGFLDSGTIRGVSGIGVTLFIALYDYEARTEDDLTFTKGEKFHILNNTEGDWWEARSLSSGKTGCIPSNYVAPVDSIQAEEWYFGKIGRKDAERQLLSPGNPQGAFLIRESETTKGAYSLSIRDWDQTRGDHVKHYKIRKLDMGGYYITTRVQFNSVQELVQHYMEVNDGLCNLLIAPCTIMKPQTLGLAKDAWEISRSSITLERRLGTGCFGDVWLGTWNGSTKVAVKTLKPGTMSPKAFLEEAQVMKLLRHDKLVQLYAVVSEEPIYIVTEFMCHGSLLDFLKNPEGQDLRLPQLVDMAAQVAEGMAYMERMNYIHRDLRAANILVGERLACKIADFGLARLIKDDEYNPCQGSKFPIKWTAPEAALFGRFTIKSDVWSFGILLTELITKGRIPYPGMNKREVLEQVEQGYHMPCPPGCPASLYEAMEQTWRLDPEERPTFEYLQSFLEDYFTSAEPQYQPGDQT

Sample 1
SMILES: Cc1nc(N2CC[C@@H](O)C2)ncc1-c1cc(C(F)(F)F)cc2[nH]ncc12
Method: competition with immobilised ligand
Concentration: 1 µM
target | observed | remaining binding [%]
Transient receptor potential cation channel subfamily M member 6 (TRPM6, Homo sapiens, UniProt Q9BX84) | cell-free assay | 52
TGF-beta receptor type-1 (TGFBR1, Homo sapiens, UniProt P36897) | cell-free assay | 100
Ribosomal protein S6 kinase alpha-4, N-terminal kinase domain (RPS6KA4, Homo sapiens, UniProt O75676) | binding | 84
Mast/stem cell growth factor receptor Kit (KIT, Homo sapiens, UniProt P10721, V559D) | cell-free assay | 58
Non-receptor tyrosine-protein kinase TNK1 (TNK1, Homo sapiens, UniProt Q13470) | binding | 100
Phosphatidylinositol 4,5-bisphosphate 3-kinase catalytic subunit alpha isoform (PIK3CA, Homo sapiens, UniProt P42336, M1043I) | cell-free assay | 100
Cyclin-dependent kinase 3 (CDK3, Homo sapiens, UniProt Q00526) | binding | 83
Tyrosine-protein kinase JAK1, JH1 (JAK1, Homo sapiens, UniProt P23458) | binding | 78
Mitogen-activated protein kinase kinase kinase 10 (MAP3K10, Homo sapiens, UniProt Q02779) | binding | 100
Serine/threonine-protein kinase D1 (PRKD1, Homo sapiens, UniProt Q15139) | binding | 75
Dual specificity mitogen-activated protein kinase kinase 4 (MAP2K4, Homo sapiens, UniProt P45985) | binding | 97
Tyrosine-protein kinase ABL1, non-phosphorylated (ABL1, Homo sapiens, UniProt P00519, H396P) | binding | 77
Mitogen-activated protein kinase kinase kinase kinase 1 (MAP4K1, Homo sapiens, UniProt Q92918) | binding | 100
Ribosomal protein S6 kinase alpha-2, N-terminal kinase domain (RPS6KA2, Homo sapiens, UniProt Q15349) | binding | 100
Insulin receptor (INSR, Homo sapiens, UniProt P06213) | cell-free assay | 100
Wee1-like protein kinase 2 (WEE2, Homo sapiens, UniProt P0C1S8) | binding | 100
Activin receptor type-1-like (ACVRL1, Homo sapiens, UniProt P37023) | binding | 100
Serine/threonine-protein kinase Chk1 (CHEK1, Homo sapiens, UniProt O14757) | binding | 100
Protein kinase C theta type (PRKCQ, Homo sapiens, UniProt Q04759) | cell-free assay | 100
Mast/stem cell growth factor receptor Kit, autoinhibited (KIT, Homo sapiens, UniProt P10721) | cell-free assay | 89
Calcium/calmodulin-dependent protein kinase type 1D (CAMK1D, Homo sapiens, UniProt Q8IU85) | cell-free assay | 100
Tyrosine-protein kinase Fgr (FGR, Homo sapiens, UniProt P09769) | cell-free assay | 100
G protein-coupled receptor kinase 4 (GRK4, Homo sapiens, UniProt P32298) | binding | 86
Tyrosine-protein kinase Lck (LCK, Homo sapiens, UniProt P06239) | binding | 100
NT-3 growth factor receptor (NTRK3, Homo sapiens, UniProt Q16288) | cell-free assay | 66

Sample 2
Target: DNA polymerase theta, ATPase domain (POLQ, Homo sapiens, UniProt O75417)
UniProt O75417, sequence (whole entry, unmodified, looked up): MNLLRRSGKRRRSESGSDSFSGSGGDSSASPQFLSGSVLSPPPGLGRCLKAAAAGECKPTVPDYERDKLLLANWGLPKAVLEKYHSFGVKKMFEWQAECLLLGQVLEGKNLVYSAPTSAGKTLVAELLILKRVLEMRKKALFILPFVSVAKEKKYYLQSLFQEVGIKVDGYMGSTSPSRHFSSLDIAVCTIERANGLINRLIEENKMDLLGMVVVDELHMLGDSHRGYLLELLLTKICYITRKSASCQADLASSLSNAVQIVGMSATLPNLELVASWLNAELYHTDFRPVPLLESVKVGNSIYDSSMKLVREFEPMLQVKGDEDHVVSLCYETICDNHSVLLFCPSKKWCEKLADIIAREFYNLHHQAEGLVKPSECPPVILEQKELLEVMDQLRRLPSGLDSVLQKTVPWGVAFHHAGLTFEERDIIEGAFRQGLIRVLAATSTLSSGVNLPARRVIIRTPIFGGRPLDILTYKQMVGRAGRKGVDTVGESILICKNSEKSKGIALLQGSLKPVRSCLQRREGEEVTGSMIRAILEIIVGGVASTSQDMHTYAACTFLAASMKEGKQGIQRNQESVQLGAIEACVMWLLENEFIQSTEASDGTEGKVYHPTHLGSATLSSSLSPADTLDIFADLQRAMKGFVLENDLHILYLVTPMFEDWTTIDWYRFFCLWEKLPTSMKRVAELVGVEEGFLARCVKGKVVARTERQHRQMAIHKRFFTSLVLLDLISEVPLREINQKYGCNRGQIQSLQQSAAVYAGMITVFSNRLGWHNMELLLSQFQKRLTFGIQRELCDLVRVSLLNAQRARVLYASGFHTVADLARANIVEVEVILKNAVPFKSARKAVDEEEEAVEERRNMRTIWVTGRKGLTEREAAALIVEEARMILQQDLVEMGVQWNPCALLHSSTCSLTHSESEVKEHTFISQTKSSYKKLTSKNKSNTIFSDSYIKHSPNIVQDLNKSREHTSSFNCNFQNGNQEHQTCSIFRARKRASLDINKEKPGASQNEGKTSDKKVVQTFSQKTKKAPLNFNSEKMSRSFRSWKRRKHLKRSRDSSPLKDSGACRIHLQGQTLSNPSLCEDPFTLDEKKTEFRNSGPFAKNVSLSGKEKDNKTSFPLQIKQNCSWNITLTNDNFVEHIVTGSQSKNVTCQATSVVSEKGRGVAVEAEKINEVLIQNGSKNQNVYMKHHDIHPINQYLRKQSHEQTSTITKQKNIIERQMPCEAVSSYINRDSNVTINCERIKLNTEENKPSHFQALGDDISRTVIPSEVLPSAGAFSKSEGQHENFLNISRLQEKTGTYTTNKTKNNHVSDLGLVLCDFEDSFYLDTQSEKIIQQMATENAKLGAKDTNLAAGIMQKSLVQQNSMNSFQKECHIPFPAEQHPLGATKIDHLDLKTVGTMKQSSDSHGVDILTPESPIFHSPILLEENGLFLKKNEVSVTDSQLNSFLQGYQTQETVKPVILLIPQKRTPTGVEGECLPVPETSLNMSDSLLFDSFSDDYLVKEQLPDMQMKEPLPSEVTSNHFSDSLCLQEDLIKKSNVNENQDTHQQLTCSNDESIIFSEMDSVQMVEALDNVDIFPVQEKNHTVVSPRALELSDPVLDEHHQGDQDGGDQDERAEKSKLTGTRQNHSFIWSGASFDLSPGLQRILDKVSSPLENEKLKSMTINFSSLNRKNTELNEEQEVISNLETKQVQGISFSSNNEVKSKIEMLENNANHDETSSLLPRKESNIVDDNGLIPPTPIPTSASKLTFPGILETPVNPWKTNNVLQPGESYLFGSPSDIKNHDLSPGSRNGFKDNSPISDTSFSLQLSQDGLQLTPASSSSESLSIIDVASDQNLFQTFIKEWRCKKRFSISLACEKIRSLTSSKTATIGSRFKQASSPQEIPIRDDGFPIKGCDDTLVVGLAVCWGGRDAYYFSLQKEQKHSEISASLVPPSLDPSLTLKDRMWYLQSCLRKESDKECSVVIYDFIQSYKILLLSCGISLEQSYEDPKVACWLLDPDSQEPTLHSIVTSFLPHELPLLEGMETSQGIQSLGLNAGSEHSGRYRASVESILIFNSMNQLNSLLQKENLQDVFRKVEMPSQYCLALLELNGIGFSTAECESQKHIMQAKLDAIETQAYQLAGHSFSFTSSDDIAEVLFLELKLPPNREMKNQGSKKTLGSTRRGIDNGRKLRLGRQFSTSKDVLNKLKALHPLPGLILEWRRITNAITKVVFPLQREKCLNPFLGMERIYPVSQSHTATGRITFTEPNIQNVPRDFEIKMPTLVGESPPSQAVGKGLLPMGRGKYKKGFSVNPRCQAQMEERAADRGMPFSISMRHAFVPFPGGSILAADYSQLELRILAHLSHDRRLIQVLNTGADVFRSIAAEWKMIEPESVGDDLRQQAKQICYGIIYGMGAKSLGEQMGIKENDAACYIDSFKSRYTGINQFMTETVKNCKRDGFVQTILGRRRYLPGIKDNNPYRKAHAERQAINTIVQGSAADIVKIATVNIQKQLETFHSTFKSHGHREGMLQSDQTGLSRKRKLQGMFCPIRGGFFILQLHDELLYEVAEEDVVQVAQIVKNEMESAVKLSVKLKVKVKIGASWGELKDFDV
Observed: enzyme activity
Mode: inhibitor
Concentration: 77 µM
Relative to: untreated
Compound | remaining activity
COc1cc(Nc2ncc(F)c(Nc3ccc4c(n3)N(COP(=O)(O)O)C(=O)C(C)(C)O4)n2)cc(OC)c1OC | 102%
Oc1cc2c(cc1O)[C@@H]1c3ccc(O)c(O)c3OC[C@]1(O)C2 | 98.8%
Cc1ccc2c(Cl)cc(Cl)c(O)c2n1 | 108%
CC(=O)SCC[N+](C)(C)C | 101%
COc1cc(/C=C(\C#N)C(=O)c2ccc(O)c(O)c2)cc(I)c1O | 84%
CCCCOc1cc(CC2CNC(=O)N2)ccc1OC (stereo not drawn) | 102%
CC1(C)[C@@H](OC(=O)CCC(=O)O)CC[C@]2(C)[C@H]3C(=O)C=C4[C@@H]5C[C@@](C)(C(=O)O)CC[C@]5(C)CC[C@@]4(C)[C@]3(C)CC[C@@H]12 | 103%
CCOC(=O)[C@H](CCc1ccccc1)N[C@@H](C)C(=O)N1[C@H](C(=O)O)C[C@@H]2CCC[C@@H]21 | 95% and 99.5%
Clc1cccc(Cl)c1NC1=NCCN1 | 101%
CCCCCCCCc1ccc(-c2ccc(C(=O)O)cc2)cc1 | 99.1%

Sample 3
Host: mouse
Sample: microsomes or S9
Concentration: 2 µM
Time: 0.5 h
Compound | remaining compound [%]
CC1(C)C=C(Br)c2ccnc(-c3ccc(S(C)(=O)=O)cc3F)c2O1 | 10
COc1nn(C)c(=O)n1-c1cccc(Cl)c1Cl | 6.45
Oc1ccccc1O/C(=C/n1ccnc1)c1ccccc1 | 12.4
COc1c(-c2ccc(F)c(F)c2)c(-n2cncn2)nc2ccc(F)cc12 | > 100
O=C(CN(CCc1ccccc1)S(=O)(=O)c1ccc(Cl)cc1)Nc1ccc2c(c1)OCCO2 | 2.39
NC(CC(=O)N1CCCCN1)Cc1ccccc1F (stereo not drawn) | 46.6
COC(=O)c1nc(C2CC(C(C)(C)C)=NO2)cc(N)c1Cl (stereo not drawn) | 54.4
CCC(CC)C(=O)N1CCN(c2cc(-n3nc(C)cc3C)ncn2)CC1 | 0.0793
Clc1ccc2nc(N3CCc4ccccc4C3)sc2c1 | 11.8
Cc1ccc(CNc2ncc(-c3ccccc3F)c(-c3nccn3C)n2)cc1 | 5.85
Fc1ccc2nc(-c3csc(-c4ccco4)n3)[nH]c2c1 | 0.053
Cc1nn(C)cc1-c1cncn1C(C)Cc1c(C)nn(C)c1C (stereo not drawn) | 45
CCCOCC1CC(n2cncn2)C(c2ccc(Cl)cc2)=NO1 (stereo not drawn) | 19.5

Sample 4
Target: Dual specificity protein kinase TTK (TTK, Homo sapiens, UniProt P33981)
UniProt P33981, sequence (whole entry, looked up): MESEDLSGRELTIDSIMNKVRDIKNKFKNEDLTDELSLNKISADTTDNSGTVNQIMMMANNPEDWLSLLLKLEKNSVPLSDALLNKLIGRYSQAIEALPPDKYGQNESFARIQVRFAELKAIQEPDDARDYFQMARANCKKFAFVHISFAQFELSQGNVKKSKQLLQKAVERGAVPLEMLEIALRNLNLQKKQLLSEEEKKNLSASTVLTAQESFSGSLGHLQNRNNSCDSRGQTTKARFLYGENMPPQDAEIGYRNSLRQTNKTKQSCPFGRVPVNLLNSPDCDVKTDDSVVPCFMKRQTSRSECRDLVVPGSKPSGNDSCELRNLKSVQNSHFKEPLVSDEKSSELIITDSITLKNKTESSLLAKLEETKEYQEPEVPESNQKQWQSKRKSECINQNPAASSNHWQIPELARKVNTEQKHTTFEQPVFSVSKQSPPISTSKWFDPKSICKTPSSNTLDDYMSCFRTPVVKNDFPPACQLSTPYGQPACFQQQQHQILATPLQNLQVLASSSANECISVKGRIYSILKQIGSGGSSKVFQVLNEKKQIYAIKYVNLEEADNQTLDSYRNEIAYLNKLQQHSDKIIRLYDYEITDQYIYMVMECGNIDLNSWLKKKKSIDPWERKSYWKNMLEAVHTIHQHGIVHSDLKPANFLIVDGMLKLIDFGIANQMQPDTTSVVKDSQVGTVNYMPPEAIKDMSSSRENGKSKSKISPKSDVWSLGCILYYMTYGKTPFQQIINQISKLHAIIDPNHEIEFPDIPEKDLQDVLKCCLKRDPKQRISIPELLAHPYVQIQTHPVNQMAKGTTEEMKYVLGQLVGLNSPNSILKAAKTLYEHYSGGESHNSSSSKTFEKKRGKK
Observed: enzyme activity
Mode: inhibitor
Concentration: 0.5 µM
Relative to: control
Structure (SMILES) | remaining activity [%]
O=C(NC(NC(=S)Nc1ccc(F)c([N+](=O)[O-])c1)C(Cl)(Cl)Cl)C(c1ccccc1)c1ccccc1 (stereo not drawn) | 96.9
Ic1cccc(CSc2nnc(-c3ccncc3)o2)c1 | 103
Nc1cccc(-c2cc3c(Oc4cccc(O)c4)ncnc3[nH]2)c1 | 104
COc1cc2ncnc(Nc3ccc(O)c(Br)c3)c2cc1OC | 105
O=C1C(Cl)=C(N2C(=O)CCC2=O)C(=O)c2ccccc21 | 108
CCN(CC)CCNC(=O)c1c(C)[nH]c(/C=C2\C(=O)Nc3ccc(Cl)cc32)c1C | 59.8
Cc1cn(-c2cc(NC(=O)c3ccc(C)c(Nc4nccc(-c5cccnc5)n4)c3)cc(C(F)(F)F)c2)cn1 | 97.9
c1ccc(-c2[nH]ncc2-c2ccnc3ccccc23)nc1 | 97.4
Cc1nc2cc3nc(-c4cccs4)cnc3cc2n1C | 92.6
Cn1nc2c3c(cccc31)C(=O)c1ccccc1-2 | 77.7
O=C1c2ccccc2-c2n[nH]c3cccc1c23 | 68.9
Cc1cc2ncc(-c3ccccc3)nc2cc1C | 91
c1ccc(-c2cnc(Nc3ccc(OCCN4CCCC4)cc3)s2)cc1 | 102
CN([C@@H](Cc1ccc(OS(=O)(=O)c2cccc3cnccc23)cc1)C(=O)N1CCN(c2ccccc2)CC1)S(=O)(=O)c1cccc2cnccc12 | 86
C[C@@H]1CCN(C(=O)CC#N)C[C@@H]1N(C)c1ncnc2[nH]ccc12 | 108
O=C(Nc1cccc(Nc2nccc(Nc3cccc(C(F)(F)F)c3)n2)c1)C1CC1 | 92.1
CN(C)C[C@H]1CCn2c(c(C3=C(c4cn(C)c5ccccc45)C(=O)NC3=O)c3ccccc32)C1 | 105
CCOc1nc(NC(=O)Cc2cc(OC)ccc2OC)cc(N)c1C#N | 75.6
COc1cc2ncnc(Nc3cccc(Cl)c3)c2cc1OC | 108
N#C/C(=C\c1ccc(O)c(O)c1)C(=O)NCc1ccccc1 | 103
COc1cc2c(cc1OC)-c1[nH]nc(Nc3cccc(F)c3)c1C2 | 84.1
N#Cc1c(NC(=O)c2cccc3ccccc23)sc2c1CCCC2 | 85.5
CCN(CC)C(=O)c1ccc(Nc2nc(OCC3CCCCC3)c3[nH]cnc3n2)cc1 | 47.8
O=c1cc(-c2cccc3c2Sc2ccccc2S3)oc(N2CCOCC2)c1 | 106
